Measured values pooled from the literature.
Numbered parts are unrelated; each lists some results of a single study. Substitutions count along the parent as printed.

Block 1 — target: FOS, bZIP domain (human); method: DHFR protein complementation; sample: yeast; relative to: wild-type JUN-FOS pair; direction: higher = stronger binding
Setting: single substitutions, most at no-binding floor
Starting sequence: JUN, bZIP domain (human); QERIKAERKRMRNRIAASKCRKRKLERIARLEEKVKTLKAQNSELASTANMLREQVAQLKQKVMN; partner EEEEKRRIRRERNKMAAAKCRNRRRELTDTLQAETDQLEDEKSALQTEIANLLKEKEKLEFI
| Change | binding fitness [natural log] |
| --- | --- |
| L38F | -1.23 |
| L38I | -0.79 |
| A29R | -0.11 |
| I28S | -0.319 |
| N42W | -1.25 |
| V56R | -1.33 |
| L45M | -0.393 |
| S47M | 0.0118 |
| R30G | 0.0371 |
| E33W | -0.333 |
| A57N | 0.00623 |
| I28D | -0.24 |
| V56H | -0.935 |

Block 2 — method: Sort-seq; item: YFP reporter; sample: E. coli; setting: PhoQ-PhoP variant library; added: 10 µM Mg2+; relative to: high Mg2+ state; direction: higher = stronger signaling
Molecule: PhoQ, residues 284 288 289 292 302 303 ASSHFY
| target | fold induction |
| --- | --- |
| PhoP, residues 12 14 15 18 19 TQCLL (Escherichia coli, UniProt P23836) | 13.4 |
| PhoP, residues 12 14 15 18 19 VHTVL (Escherichia coli, UniProt P23836) | 2.1 |
| PhoP, residues 12 14 15 18 19 ICWRQ (Escherichia coli, UniProt P23836) | 5.2 |

Block 3 — method: protein binding microarray; molecule type: double-stranded DNA, one strand shown; sample: in vitro; tested at: not given; relative to: not given; direction: higher = stronger binding
Target: Histone acetyltransferase KAT6A, both winged helices, GST fusion (KAT6A, Homo sapiens, UniProt Q92794, residues 1-181)
Setting: 8-mer, flanks averaged, mean of 2 arrays, mostly near background
Target sequence (chain): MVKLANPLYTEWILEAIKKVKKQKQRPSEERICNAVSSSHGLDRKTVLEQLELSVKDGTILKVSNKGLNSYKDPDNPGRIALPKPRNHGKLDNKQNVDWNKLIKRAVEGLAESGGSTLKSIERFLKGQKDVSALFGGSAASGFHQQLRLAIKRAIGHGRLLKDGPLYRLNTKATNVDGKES
| Sequence | E-score |
| --- | --- |
| ACGGTGCG | 0.235 |
| TAGGTAGA | -0.117 |
| ATTTCCTA | -0.148 |
| CCGATGGA | 0.016 |
| ACTGGCCG | 0.153 |
| AAAAGGTA | -0.187 |
| CCACAAGA | -0.212 |
| CGCGCGAC | 0.4 |
| CAGGTCCG | 0.0189 |
| AAGTGCAG | -0.194 |
| CCTCCGAC | -0.0409 |
| GCACTAAA | 0.104 |
| AAGCGGGA | 0.217 |
| GCTAGGAC | 0.0208 |
| GACTGGAA | -0.0721 |
| ACCACGTA | -0.194 |
| GCGCACCC | 0.243 |
| AACTTTCT | -0.0966 |
| GCCTGCCA | -0.106 |
| CCAACTAG | -0.0808 |
| AGTCATGG | -0.127 |

Block 4 — target: CCNF, cyclin fold, Cln2 fusion (human); method: yeast growth competition, sequencing; sample: yeast; setting: strong parent motif; relative to: not given; direction: higher = stronger binding
Starting sequence: SAMHD1 docking peptide (human); ASKSRVQLFKDDP; partner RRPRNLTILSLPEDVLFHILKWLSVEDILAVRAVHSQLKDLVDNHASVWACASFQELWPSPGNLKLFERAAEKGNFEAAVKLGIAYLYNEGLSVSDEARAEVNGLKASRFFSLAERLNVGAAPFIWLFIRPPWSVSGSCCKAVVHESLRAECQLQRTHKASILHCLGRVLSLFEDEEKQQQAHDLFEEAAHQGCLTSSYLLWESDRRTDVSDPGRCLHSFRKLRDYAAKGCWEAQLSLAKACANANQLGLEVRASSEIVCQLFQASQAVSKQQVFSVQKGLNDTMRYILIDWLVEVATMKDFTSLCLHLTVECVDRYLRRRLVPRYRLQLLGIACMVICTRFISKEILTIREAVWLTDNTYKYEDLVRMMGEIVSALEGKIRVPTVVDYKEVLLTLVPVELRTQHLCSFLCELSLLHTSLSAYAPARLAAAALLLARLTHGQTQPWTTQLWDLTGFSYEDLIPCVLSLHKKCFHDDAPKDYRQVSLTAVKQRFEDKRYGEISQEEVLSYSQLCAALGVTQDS
| Change | normalised enrichment score |
| --- | --- |
| K3V | 1.13 |
| F9H | 0.363 |
| S4I | 5.68 |
| K3L | 1.31 |
| L8W | -0.0064 |
| F9P | -0.263 |
| R5E | -0.446 |
| S2A | 1.56 |
| S4N | 0.337 |
| F9Q | -0.166 |
| R5T | -0.0727 |
| L8M | 0.245 |
| K10H | 0.36 |
| D12M | 1.57 |
| S4M | 1.39 |
| R5C | 1.29 |
| K3T | 0.95 |
| F9I | 0.179 |
| D11V | 0.842 |
| L8A | -0.0746 |
| L8Q | -0.33 |
| F9V | -0.074 |
| S2P | 1.44 |
| L8R | 0.0964 |
